Assay results collected from several papers.
Compare with care: the assays were run in different laboratories.

Structure (SMILES) | organism | assay | test system | conditions | MIC
CC1(C)S[C@@H]2[C@H](NC(=O)[C@H](N)c3ccc(O)cc3)C(=O)N2[C@H]1C(=O)O | Salmonella enterica | – | – | – | 16 µg/mL
O=C(O)c1cn(C2CC2)c2cc(N3CCNCC3)c(F)cc2c1=O | Salmonella enterica | broth microdilution | Kentucky, resistant | – | 16 µg/mL
OC(Cn1cncn1)(Cn1cncn1)c1ccc(F)cc1F | Candida albicans | broth microdilution | 348 | 24 h, compound alone | 1 µg/mL
N=C(N)c1ccc(OCCC(CCOc2ccc(C(=N)N)cc2)c2ccccc2)cc1 (stereo not drawn) | Escherichia coli | – | BW25113 | compound alone, novobiocin checkerboard | > 200 µg/mL
CNC(C)C1CCC(N)C(OC2C(N)CC(N)C(OC3OCC(C)(O)C(NC)C3O)C2O)O1 (stereo not drawn) | Pseudomonas aeruginosa | – | clinical isolate RKI-No_584/15 | – | 8 µg/mL
CN(C)c1ccc(CNc2ccc(C(=O)O)cc2)cc1 | Salmonella enterica | – | – | – | 64 µg/mL
C#CCOC(=O)ON=C1C=CC(=C(C#N)c2ccccc2)C=C1 | Kluyveromyces marxianus | broth dilution | ATCC 204093 | 48 h, 37 °C | 8 µg/mL
CO[C@H]1/C=C/O[C@@]2(C)Oc3c(C)c(O)c4c(O)c(c(/C=N/N5CCN(C)CC5)c(O)c4c3C2=O)NC(=O)/C(C)=C\C=C\[C@H](C)[C@H](O)[C@@H](C)[C@@H](O)[C@@H](C)[C@H](OC(C)=O)[C@@H]1C | Mycobacterium marinum | – | – | – | 10 µM
O=C(O)c1ccc(NCc2cc(Br)ccc2O)cc1 | Salmonella enterica | – | – | – | 128 µg/mL
Cc1c(CN(C)C(=O)/C=C/c2cnc3c(c2)CCC(=O)N3)oc2ccccc12 | Escherichia coli | broth microdilution | AR-0493 | – | > 32 µg/mL
N=C(N)c1ccc(OCCCCCOc2ccc(C(=N)N)cc2)cc1 | Escherichia coli | – | BW25113 | compound alone, vancomycin checkerboard | 200 µg/mL
CC1(C)SC2C(NC(=O)C(NC(=O)C3=C(O)C(c4ccccc4)NC3=O)c3ccccc3)C(=O)N2C1C(=O)O (stereo not drawn) | Escherichia coli | broth microdilution | ATCC 25922 wild type | no clavulanic acid | 12.5 µg/mL
CC(=O)ON=C1C=CC(=C(C#N)c2ccccc2)C=C1 | Kluyveromyces marxianus | broth dilution | ATCC 204093 | 48 h, 37 °C | 16 µg/mL
COc1cc(CNc2ccc(C(=O)O)cc2)cc(OC)c1O | Salmonella enterica | – | – | – | 64 µg/mL
CCCCCOc1ccc(-c2ccc(-c3ccc(C(=O)N[C@H]4C[C@@H](O)[C@@H](OCC[N+](C)(C)C)NC(=O)[C@@H]5[C@@H](O)[C@@H](C)CN5C(=O)[C@H]([C@@H](C)O)NC(=O)[C@H]([C@H](O)[C@@H](O)c5ccc(O)cc5)NC(=O)[C@@H]5C[C@@H](O)CN5C(=O)[C@H]([C@@H](C)O)NC4=O)cc3)cc2)cc1 | Candida albicans | CLSI broth microdilution | 98-210 | – | 0.016 µg/mL
OC(Cn1cncn1)(Cn1cncn1)c1ccc(F)cc1F | Candida tropicalis | – | CT2 | – | 2 µg/mL
CC1(C)S[C@@H]2[C@H](NC(=O)[C@H](N)c3ccccc3)C(=O)N2[C@H]1C(=O)O | Pseudomonas aeruginosa | – | clinical isolate RKI-No_480/15 | – | > 16 µg/mL
N=C(N)c1ccc(OCc2cccc(COc3ccc(C(=N)N)cc3)c2)cc1 | Escherichia coli | – | BW25113 | compound alone, novobiocin checkerboard | > 200 µg/mL

Some of these lines once more:
Structure (SMILES) | organism | assay | test system | conditions | MIC
CN(C)c1ccc(CNc2ccc(C(=O)O)cc2)cc1 | Salmonella enterica | – | – | – | 64 µg/mL
N=C(N)c1ccc(OCCCCCOc2ccc(C(=N)N)cc2)cc1 | Escherichia coli | – | BW25113 | compound alone, vancomycin checkerboard | 200 µg/mL
